Measured values of several laboratories.
Compare with care: the assays were run in different laboratories. ± gives the spread as reported. Converted amounts (≈) assume the structure as drawn.

Chains of the proteins cited; added tags and fusions are not shown.
UniProt Q9NWZ3, whole entry: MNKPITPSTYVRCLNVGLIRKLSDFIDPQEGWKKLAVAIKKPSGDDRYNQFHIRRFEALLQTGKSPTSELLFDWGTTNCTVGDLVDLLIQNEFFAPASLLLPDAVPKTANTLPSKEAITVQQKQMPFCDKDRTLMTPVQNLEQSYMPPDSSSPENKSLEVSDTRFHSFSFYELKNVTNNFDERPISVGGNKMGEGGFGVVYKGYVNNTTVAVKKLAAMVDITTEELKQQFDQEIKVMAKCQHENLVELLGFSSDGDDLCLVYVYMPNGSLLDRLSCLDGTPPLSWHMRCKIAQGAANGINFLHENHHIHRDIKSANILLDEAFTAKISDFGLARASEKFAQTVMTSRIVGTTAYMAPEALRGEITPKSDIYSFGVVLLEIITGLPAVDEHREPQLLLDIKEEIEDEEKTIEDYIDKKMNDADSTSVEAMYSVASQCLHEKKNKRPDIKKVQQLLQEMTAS
UniProt P50406, whole entry: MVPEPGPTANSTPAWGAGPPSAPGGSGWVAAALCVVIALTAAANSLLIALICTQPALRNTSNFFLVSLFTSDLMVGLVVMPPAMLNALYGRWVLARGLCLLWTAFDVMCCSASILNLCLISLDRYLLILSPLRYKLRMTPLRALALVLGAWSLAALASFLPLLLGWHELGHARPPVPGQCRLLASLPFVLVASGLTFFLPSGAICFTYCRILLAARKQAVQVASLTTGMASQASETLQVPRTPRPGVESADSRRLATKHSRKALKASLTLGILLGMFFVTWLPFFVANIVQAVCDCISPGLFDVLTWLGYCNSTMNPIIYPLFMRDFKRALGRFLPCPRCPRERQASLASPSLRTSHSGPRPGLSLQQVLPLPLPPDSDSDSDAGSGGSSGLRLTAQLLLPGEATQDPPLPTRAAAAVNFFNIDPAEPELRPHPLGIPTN

| SMILES | tested on | test | system | setting | scale | measurement | result |
| --- | --- | --- | --- | --- | --- | --- | --- |
| C[C@@H]1NC(=O)[C@@H]2CCCN2C(=O)[C@H](CC(N)=O)NC(=O)[C@H](Cc2c[nH]c3ccccc23)NC(=O)[C@@H]2CSSC[C@@H](C(N)=O)NC(=O)[C@H](Cc3ccc(O)cc3)NC(=O)[C@H](Cc3c[nH]cn3)NC(=O)[C@H](CCCCN)NC(=O)CNC(=O)[C@H](CSSC[C@H](NC(=O)CN)C(=O)N2)NC1=O |  | RP-HPLC | mouse serum 25% in water | 50 µM, 24 h, 37 °C |  | remaining peptide | 1.44 ± 0.26% |
| CC#C/C(=N\OC[C@H]1COCCN1)c1ccc2ncnc(Nc3ccc(OCc4cccc(F)c4)c(Cl)c3)c2c1 | Interleukin-1 receptor-associated kinase 4 (IRAK4, Homo sapiens, UniProt Q9NWZ3) | kinase activity |  | 10 µM |  | inhibition | 3.8% |
| CCCSc1nc(N[C@@H]2C[C@H]2c2ccc(F)c(F)c2)c2nnn([C@@H]3C[C@H](OCCO)[C@@H](O)[C@H]3O)c2n1 |  |  | STEMI patients, plasma | 180 mg loading dose, 6 h, together with: morphine |  | plasma concentration | 327 ± 372 ng/mL |
| CCCCCCCCCCCCCCCC(=O)NCCCC[C@H](NC(=O)CNC(=O)[C@H](CO)NC(=O)CNC(=O)[C@@H](NC(=O)[C@@H](NC(=O)[C@@H](NC(=O)[C@H](CO)NC(=O)[C@H](CO)NC(=O)[C@H](CCC(N)=O)NC(=O)[C@H](Cc1c[nH]cn1)NC(=O)[C@H](Cc1c[nH]c2ccccc12)NC(=O)[C@H](CC(N)=O)NC(=O)CNC(=O)[C@@H](NC(=O)[C@H](CO)NC(=O)[C@H](CC(=O)O)NC(=O)[C@H](CC(C)C)NC(=O)[C@@H](NC(=O)[C@H](CCCCN)NC(=O)[C@H](CC(N)=O)NC(=O)[C@H](CO)NC(=O)[C@H](CCCNC(=N)N)NC(=O)[C@H](CCCNC(=N)N)NC(=O)[C@@H](NC(=O)[C@H](Cc1c[nH]c2ccccc12)NC(=O)[C@H](CCC(=O)O)NC(=O)[C@H](CCCCN)NC(=O)[C@H](CO)NC(=O)[C@H](CCC(=O)O)NC(=O)[C@H](CCC(=O)O)NC(=O)[C@H](CC(C)C)NC(=O)[C@H](CC(=O)O)NC(=O)[C@H](CO)NC(=O)[C@H](CCCCN)NC(=O)[C@@H](NC(=O)[C@H](CCCCN)NC(=O)[C@H](CC(N)=O)NC(=O)[C@H](CC(C)C)NC(=O)[C@@H](NC(=O)[C@@H](NC(=O)[C@H](CO)NC(=O)[C@@H](NC(=O)[C@H](CC(=O)O)NC(=O)[C@@H](NC(=O)[C@@H]1CCCN1C(=O)[C@H](CC(=O)O)NC(=O)[C@H](CC(C)C)NC(=O)[C@H](C)NC(=O)[C@@H](N)C(C)C)[C@@H](C)CC)[C@@H](C)CC)[C@@H](C)CC)C(C)C)[C@@H](C)CC)[C@@H](C)CC)[C@@H](C)CC)[C@@H](C)CC)[C@@H](C)O)[C@@H](C)O)[C@@H](C)CC)C(=O)O |  |  | water |  |  | solubility | 3400 ± 80 µg/mL (≈ 583 µM) |
| CC[C@H](C)[C@H](NC(=O)[C@H](Cc1ccc(O)cc1)NC(=O)[C@H](CO)NC(=O)[C@H](CCC(=O)O)NC(=O)[C@H](CCC(=O)O)NC(=O)[C@H](CC(C)C)NC(=O)[C@H](CCCCN)NC(=O)[C@H](CCCCN)NC(=O)[C@@H](NC(=O)[C@@H](NC(=O)[C@H](CCC(=O)O)NC(=O)[C@H](CCC(=O)O)NC(=O)[C@H](CC(C)C)NC(=O)[C@H](CCCCN)NC(=O)[C@H](CCCCN)NC(=O)[C@H](CCSC)NC(=O)[C@H](CCC(=O)O)NC(=O)[C@H](Cc1ccc(O)cc1)NC(=O)[C@H](CCC(=O)O)NC(=O)[C@H](CC(C)C)NC(=O)[C@H](CC(=O)O)NC(=O)[C@H](CC(C)C)NC(=O)[C@H](CC(C)C)NC(=O)[C@@H](NC(=O)[C@@H](NC(=O)[C@H](CC(N)=O)NC(=O)[C@@H](NC(=O)[C@H](CCC(N)=O)NC(=O)[C@@H](NC(=O)[C@H](CC(C)C)NC(=O)[C@H](CO)NC(C)=O)[C@@H](C)O)[C@@H](C)CC)[C@@H](C)O)[C@@H](C)O)C(C)C)C(C)C)C(=O)N[C@@H](CC(=O)O)C(=O)N[C@@H](CC(C)C)C(=O)N[C@@H](CCCCN)C(=O)N[C@@H](CCC(=O)O)C(=O)N[C@@H](CC(C)C)C(N)=O |  |  | Sprague-Dawley rat | intravenous, 4 mg/kg |  | CL | 17.3 mL/min/kg |
| CC(C)C[C@H](NC(=O)[C@@H]1C[C@@H](O)CN1C(=O)[C@H](Cc1ccccc1)NC(=O)[C@H](CO)NC(=O)[C@H](C)NC(=O)[C@H](Cc1ccccc1)NC(=O)[C@@H](NC(=O)[C@H](CCC(=O)O)NC(=O)[C@H](Cc1c[nH]cn1)NC(=O)[C@@H](NC(=O)[C@@H](NC(=O)[C@H](CCC(N)=O)NC(=O)[C@H](C)NC(=O)[C@@H](N)CC(=O)O)[C@@H](C)O)C(C)C)C(C)C)C(=O)N[C@@H](CC(=O)O)C(=O)N[C@@H](CO)C(=O)N[C@@H](CC(=O)O)C(=O)NCC(=O)N[C@H]1CSSC[C@@H](C(N)=O)NC(=O)[C@H](Cc2ccc(O)cc2)NC(=O)[C@H](Cc2c[nH]cn2)NC(=O)[C@H](CCCCN)NC(=O)CNC(=O)[C@@H]2CSSC[C@H](NC1=O)C(=O)N[C@@H](Cc1c[nH]c3ccccc13)C(=O)N[C@@H](CC(N)=O)C(=O)N1CCC[C@H]1C(=O)N[C@@H](C)C(=O)N2 |  | RP-HPLC | mouse serum 25% in water | 50 µM, 24 h, 37 °C |  | remaining peptide | 42.4 ± 0.82% |
| Cc1cc(N(CCCl)CCCl)ccc1C(=O)O |  |  | mouse CD2F1, plasma | iv, 20 mg/kg of bendamustine |  | half-life | 2.27 h |
| CCCCCCCCCCCCCCCC(=O)NCCCC[C@H](NC(=O)CNC(=O)[C@H](CO)NC(=O)CNC(=O)[C@H](CCC(N)=O)NC(=O)[C@H](Cc1c[nH]cn1)NC(=O)[C@H](Cc1c[nH]c2ccccc12)NC(=O)[C@H](CCCCN)NC(=O)CNC(=O)[C@@H](NC(=O)[C@H](CO)NC(=O)[C@H](CCC(=O)O)NC(=O)[C@H](CC(C)C)NC(=O)[C@@H](NC(=O)[C@H](CCCCN)NC(=O)[C@H](CC(N)=O)NC(=O)[C@H](CO)NC(=O)[C@H](CCCNC(=N)N)NC(=O)[C@H](CCCNC(=N)N)NC(=O)[C@@H](NC(=O)[C@H](Cc1c[nH]c2ccccc12)NC(=O)[C@H](CCC(=O)O)NC(=O)[C@H](CCCCN)NC(=O)[C@H](CO)NC(=O)[C@H](CCC(=O)O)NC(=O)[C@H](CCC(=O)O)NC(=O)[C@H](CC(C)C)NC(=O)[C@H](CC(=O)O)NC(=O)[C@H](CCCCN)NC(=O)[C@H](CCCCN)NC(=O)[C@@H](NC(=O)[C@H](CCCCN)NC(=O)[C@H](CCCNC(=N)N)NC(=O)[C@H](CC(C)C)NC(=O)[C@@H](NC(=O)[C@H](CCC(=O)O)NC(=O)[C@H](CO)NC(=O)[C@@H](NC(=O)[C@H](CC(=O)O)NC(=O)[C@@H](NC(=O)[C@@H]1CCCN1C(=O)[C@H](CC(=O)O)NC(=O)[C@H](CC(C)C)NC(=O)[C@H](C)NC(=O)[C@@H](N)C(C)C)[C@@H](C)CC)[C@@H](C)CC)C(C)C)[C@@H](C)CC)[C@@H](C)CC)[C@@H](C)CC)[C@@H](C)CC)C(=O)O |  |  | water |  |  | solubility | > 50000 µg/mL |
| Cc1cc(N(CCOS(C)(=O)=O)CCOS(C)(=O)=O)ccc1C(=O)O |  |  | mouse | intravenous, 20 mg/kg of bendamustine |  | renal clearance | 0.22 mL/min |
| CCN1CCN(Cc2ccc(NC(=O)c3ccc(C)c(/C=C/c4cnc5[nH]ccc5c4OC)c3)cc2C(F)(F)F)CC1 | TPM3-ALK fusion | kinase-CDC37 interaction, cell-based kinome screen |  | 5 µM | baseline: vehicle | log2 fold change | -0.172 |
| Cc1cn(CC(=O)N(CCNC(=O)CN(CCNC(=O)CN(CCNC(=O)CN(CCNC(=O)CN(CCNC(=O)CN(CCNC(=O)CN(CCNC(=O)CN(CCNC(=O)CN(CCNC(=O)CN(CCNC(=O)COCCOCCNC(=O)COCCOCCNC(=O)[C@H](CNC(=O)[C@H](CNC(=O)[C@H](CNC(=O)[C@H](CNC(=O)COCCOCCNC(=O)CN2CCN(CC(=O)O)CCN(CC(=O)O)CCN(CC(=O)O)CC2)NC(=O)COCCOCCNC(=O)CN2CCN(CC(=O)O)CCN(CC(=O)O)CCN(CC(=O)O)CC2)NC(=O)[C@H](CNC(=O)COCCOCCNC(=O)CN2CCN(CC(=O)O)CCN(CC(=O)O)CCN(CC(=O)O)CC2)NC(=O)COCCOCCNC(=O)CN2CCN(CC(=O)O)CCN(CC(=O)O)CCN(CC(=O)O)CC2)NC(=O)[C@H](CNC(=O)[C@H](CNC(=O)COCCOCCNC(=O)CN2CCN(CC(=O)O)CCN(CC(=O)O)CCN(CC(=O)O)CC2)NC(=O)COCCOCCNC(=O)CN2CCN(CC(=O)O)CCN(CC(=O)O)CCN(CC(=O)O)CC2)NC(=O)[C@H](CNC(=O)COCCOCCNC(=O)CN2CCN(CC(=O)O)CCN(CC(=O)O)CCN(CC(=O)O)CC2)NC(=O)COCCOCCNC(=O)CN2CCN(CC(=O)O)CCN(CC(=O)O)CCN(CC(=O)O)CC2)NC(=O)[C@H](CNC(=O)[C@H](CNC(=O)[C@H](CNC(=O)COCCOCCNC(=O)CN2CCN(CC(=O)O)CCN(CC(=O)O)CCN(CC(=O)O)CC2)NC(=O)COCCOCCNC(=O)CN2CCN(CC(=O)O)CCN(CC(=O)O)CCN(CC(=O)O)CC2)NC(=O)[C@H](CNC(=O)COCCOCCNC(=O)CN2CCN(CC(=O)O)CCN(CC(=O)O)CCN(CC(=O)O)CC2)NC(=O)COCCOCCNC(=O)CN2CCN(CC(=O)O)CCN(CC(=O)O)CCN(CC(=O)O)CC2)NC(=O)[C@H](CNC(=O)[C@H](CNC(=O)COCCOCCNC(=O)CN2CCN(CC(=O)O)CCN(CC(=O)O)CCN(CC(=O)O)CC2)NC(=O)COCCOCCNC(=O)CN2CCN(CC(=O)O)CCN(CC(=O)O)CCN(CC(=O)O)CC2)NC(=O)[C@H](CNC(=O)COCCOCCNC(=O)CN2CCN(CC(=O)O)CCN(CC(=O)O)CCN(CC(=O)O)CC2)NC(=O)COCCOCCNC(=O)CN2CCN(CC(=O)O)CCN(CC(=O)O)CCN(CC(=O)O)CC2)C(=O)Cn2cnc3c(=O)[nH]c(N)nc32)C(=O)Cn2ccc(N)nc2=O)C(=O)Cn2ccc(N)nc2=O)C(=O)Cn2cnc3c(N)ncnc32)C(=O)Cn2cc(C)c(=O)[nH]c2=O)C(=O)Cn2ccc(N)nc2=O)C(=O)Cn2cnc3c(N)ncnc32)C(=O)Cn2cnc3c(=O)[nH]c(N)nc32)C(=O)Cn2ccc(N)nc2=O)CC(=O)NCCN(CC(=O)NCCN(CC(=O)NCCOCCOCC(=O)N[C@@H]2CSSC[C@H](C(N)=O)NC(=O)[C@@H](CCCCN)NC(=O)[C@@H](CO)NC2=O)C(=O)Cn2ccc(N)nc2=O)C(=O)Cn2ccc(N)nc2=O)c(=O)[nH]c1=O |  | radio-HPLC | mouse, ASPC1 xenograft, urine | intravenous, 3.5 h | baseline: radioactivity | free indium-111 | < 1% |
| CCCN1CCN(c2ccc3c(c2)C2CC3CCN2C(=O)OCc2ccccc2)CC1 (stereo not shown) | 5-hydroxytryptamine receptor 6 (HTR6, Homo sapiens, UniProt P50406) | binding, radioligand binding |  |  |  | Ki | 2510 nM |
| C[C@H](Cc1ccc(O)c(O)c1)[C@@H](C)Cc1ccc(O)c(O)c1 |  |  | human skin | 3% w/v solution, 8 h, no UV exposure |  | total amount delivered | 14.8 ± 2.36 µg |

A few entries again:
| SMILES | tested on | test | system | setting | scale | measurement | result |
| --- | --- | --- | --- | --- | --- | --- | --- |
| CCCN1CCN(c2ccc3c(c2)C2CC3CCN2C(=O)OCc2ccccc2)CC1 (stereo not shown) | 5-hydroxytryptamine receptor 6 (HTR6, Homo sapiens, UniProt P50406) | binding, radioligand binding |  |  |  | Ki | 2510 nM |
